Experimental data collected from several papers.
Each line is one published result; not all experiments were run side by side. Values joined by “and” are separate records of one study, mostly repeats; a detail may differ.
Organism: Pseudomonas aeruginosa

SMILES = O=C(CCCOc1cccc(Br)c1)N[C@H]1CCSC1=O; assay = elastin-Congo red; system = PAO1 wild type; setting = 100 µM, 20 h; scale = relative to: DMSO; quantity = elastase production; value = 190%
SMILES = CC(=O)N[C@@H](CCCCN)C(=O)N1CCC[C@H]1C(=O)N[C@H](C(=O)N[C@@H](Cc1ccccc1)C(=O)N[C@@H](CCC(N)=O)C(=O)N[C@@H](Cc1ccccc1)C(=O)N[C@@H](CC(C)C)C(=O)N[C@@H](Cc1ccccc1)C(=O)N[C@@H](Cc1c[nH]cn1)C(=O)N[C@@H](CCC(=O)O)C(N)=O)C(C)C; assay = flow cytometry; system = PAO1, hydrogel; setting = concentration not given, 4 h, pH 5.5, 37 °C; quantity = PI-permeable cells; value = 11.3%
SMILES = CCCCCCCCCC(=O)Oc1c(C)c(OC)c2c(c1C)OC(=O)C(CCCCCCCC)C2(O)C=Cc1ccccc1 (stereo not drawn); assay = microbial growth, well diffusion; system = ATCC27853; setting = 5 µg/mL; quantity = inhibition zone; value = 10 mm
SMILES = CC[C@H](C)CCCCC(=O)N[C@@H](CCN)C(=O)N[C@H](C(=O)N[C@@H](CCN)C(=O)N[C@H]1CCNC(=O)[C@H]([C@@H](C)O)NC(=O)[C@H](CCN)NC(=O)[C@H](CCN)NC(=O)[C@H](CC(C)C)NC(=O)[C@@H](CC(C)C)NC(=O)[C@H](CCN)NC1=O)[C@@H](C)O; system = BAA-2797, BALB/c mouse peritonitis, kidney; setting = dose not given; quantity = bacterial load; value = 2.81 log CFU and 2.56 log CFU and 2.38 log CFU and 2.68 log CFU and 2.51 log CFU
SMILES = CC(CCCOC(=O)CCC[N+](C)(C)C)C1CCC2C3CCC4CC(OC(=O)CCC[N+](C)(C)C)CCC4(C)C3CCC12C (stereo not drawn); assay = microbial growth, disc diffusion; system = ATCC27853; setting = 250 µg/disc, 24 h; quantity = inhibition zone; value = 10 mm
SMILES = CC(NC(=O)c1ccccc1)C(CCCCCCCCCCCCCCC(=O)CCCCCCCC(OC(=O)c1ccccc1)C(C)NC(=O)c1ccccc1)OC(=O)c1ccccc1 (stereo not drawn); assay = resazurin; system = ATCC 27853; setting = 50 µM; quantity = growth inhibition; value = 7%
SMILES = CCCC(=O)C#Cc1ccc(F)c(F)c1; assay = RT-qPCR, measured: rhlA; system = biofilm cells; setting = 10 µM, 24 h; scale = relative to: untreated; quantity = mRNA level; value = 24%
SMILES = O=c1c(O)ccccc1Br; assay = microbial growth, broth dilution; system = ATCC27853; quantity = MIC80; value = > 71.4 µM
SMILES = CCCC(O)c1nn[nH]c1-c1ccc(O)c(OC)c1 (stereo not drawn); assay = static biofilm; system = PA14; setting = 10 µM, 24 h, static; scale = relative to: DMSO; quantity = biofilm formation; value = 74%
SMILES = CCCC(=O)Oc1c(C)c(OC)c2c(/C=C/c3ccccc3)c(CC)c(=O)oc2c1C; assay = microbial killing, broth dilution; system = ATCC27853; quantity = MBC; value = > 5000 µg/mL
SMILES = O=c1c(O)ccccc1O; assay = microbial growth, broth dilution; system = ATCC27853; quantity = MIC80; value = > 100 µM
SMILES = O=C(Cc1ccc(Br)cc1)N[C@H]1CCOC1=O; assay = elastin-Congo red; system = PAO1 wild type; setting = 100 µM, 20 h; scale = relative to: DMSO; quantity = elastase production; value = 82.3%
SMILES = CC(C)C1=CC2=CCC3C(C)(C(=O)OCCC[N+](C)(C)C)CCCC3(C)C2CC1 (stereo not drawn); assay = microbial growth, disc diffusion; system = ATCC27853; setting = 125 µg/disc, 24 h; quantity = inhibition zone; value = 10 mm
SMILES = CCCCCCCCCC(=O)Oc1c(C)c(OC)c2c(/C=C/c3ccccc3)c(CCCCCCCC)c(=O)oc2c1C; assay = microbial growth, well diffusion; system = ATCC27853; setting = 5 µg/mL; quantity = inhibition zone; value = 11 mm
SMILES = O=C(Nc1ccccc1NC(=O)c1cccc(Cl)c1)c1cccc(Cl)c1; assay = elastin-Congo red; system = PAO1 wild type; setting = 100 µM, 20 h; quantity = elastase production; value = 54%
SMILES = COc1c(C)c(OC(=O)c2ccc3ccccc3c2)c(C)c(O)c1C(=O)/C=C/c1ccccc1; assay = microbial killing, broth dilution; system = ATCC27853; quantity = MBC; value = > 5000 µg/mL
SMILES = O=C(CCCCCCCCCN=C=S)CC(=O)N[C@H]1CCOC1=O; assay = elastin-Congo red; system = PAO1 wild type; setting = 100 µM, 20 h; quantity = elastase production; value = 291%
SMILES = CN(C)S(=O)(=O)c1ccc(S(=O)(=O)N2CCC(n3c(=O)[nH]c4ccccc43)CC2)cc1; system = CIP 27853 wild type, Bombyx eri larvae; setting = 2.78 µg/larva; quantity = bacterial load; value = 4.57 log CFU/larva and 4.28 log CFU/larva and 5 log CFU/larva and 6.44 log CFU/larva

Excerpt of the above:
SMILES = CC(=O)N[C@@H](CCCCN)C(=O)N1CCC[C@H]1C(=O)N[C@H](C(=O)N[C@@H](Cc1ccccc1)C(=O)N[C@@H](CCC(N)=O)C(=O)N[C@@H](Cc1ccccc1)C(=O)N[C@@H](CC(C)C)C(=O)N[C@@H](Cc1ccccc1)C(=O)N[C@@H](Cc1c[nH]cn1)C(=O)N[C@@H](CCC(=O)O)C(N)=O)C(C)C; assay = flow cytometry; system = PAO1, hydrogel; setting = concentration not given, 4 h, pH 5.5, 37 °C; quantity = PI-permeable cells; value = 11.3%
